Measured values gathered from unrelated publications.
Compare with care: the assays were run in different laboratories. “And” joins repeats or separate records; there may be more than shown. ± gives the spread as reported.
Sequence of UniProt P48067 (whole entry, looked up): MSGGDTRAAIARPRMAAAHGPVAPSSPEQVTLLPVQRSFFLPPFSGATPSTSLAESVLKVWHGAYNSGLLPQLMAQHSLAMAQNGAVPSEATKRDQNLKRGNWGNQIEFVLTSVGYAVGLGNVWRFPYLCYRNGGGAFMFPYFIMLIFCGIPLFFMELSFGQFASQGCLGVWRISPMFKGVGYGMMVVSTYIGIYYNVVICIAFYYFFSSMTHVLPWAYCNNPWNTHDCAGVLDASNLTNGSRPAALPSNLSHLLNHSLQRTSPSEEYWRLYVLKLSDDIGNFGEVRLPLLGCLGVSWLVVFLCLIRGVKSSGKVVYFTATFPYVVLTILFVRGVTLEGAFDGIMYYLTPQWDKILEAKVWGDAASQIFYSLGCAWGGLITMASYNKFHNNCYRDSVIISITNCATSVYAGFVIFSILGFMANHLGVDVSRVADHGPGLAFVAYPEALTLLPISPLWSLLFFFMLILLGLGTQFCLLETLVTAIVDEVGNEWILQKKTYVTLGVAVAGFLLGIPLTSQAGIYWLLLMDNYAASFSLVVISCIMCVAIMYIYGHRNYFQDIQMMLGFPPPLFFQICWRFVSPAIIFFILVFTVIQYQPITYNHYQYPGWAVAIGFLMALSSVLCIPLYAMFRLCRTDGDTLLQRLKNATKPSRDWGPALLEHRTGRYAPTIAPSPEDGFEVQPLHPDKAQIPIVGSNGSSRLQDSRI
Sequence of UniProt Q64663 (whole entry, unmodified, looked up): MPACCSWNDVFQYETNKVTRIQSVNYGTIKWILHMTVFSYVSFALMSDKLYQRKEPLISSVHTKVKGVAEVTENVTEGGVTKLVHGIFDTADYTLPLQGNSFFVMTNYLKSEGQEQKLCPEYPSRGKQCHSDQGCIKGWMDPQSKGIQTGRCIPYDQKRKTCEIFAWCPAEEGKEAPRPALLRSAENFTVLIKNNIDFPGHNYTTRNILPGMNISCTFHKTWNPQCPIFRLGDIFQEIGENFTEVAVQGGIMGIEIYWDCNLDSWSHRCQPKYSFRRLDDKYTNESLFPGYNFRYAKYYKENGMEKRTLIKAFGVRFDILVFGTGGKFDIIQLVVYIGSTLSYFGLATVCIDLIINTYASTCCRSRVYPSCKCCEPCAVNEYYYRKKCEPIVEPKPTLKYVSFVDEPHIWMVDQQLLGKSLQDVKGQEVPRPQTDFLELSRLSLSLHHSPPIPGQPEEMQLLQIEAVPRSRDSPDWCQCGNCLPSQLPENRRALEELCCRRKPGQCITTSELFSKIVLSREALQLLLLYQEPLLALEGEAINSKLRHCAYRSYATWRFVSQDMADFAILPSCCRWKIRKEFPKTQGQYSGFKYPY

Substance | tested on | test | system | conditions | how to read | endpoint | result
GSGAGQITKV | human MAGI1-2/6 PDZ construct (MBP fusion) | automated holdup | peptide, crude extract | concentration not given, uncorrected, unit not given | relative to: biotin control resin, higher = stronger binding | binding intensity | 0.215
epoetin alfa | UT7/EPO | RT-qPCR, measured: OSM | – | concentration not given, 90 min, normalized to HPRT1 | relative to: vehicle | mRNA level | 129 fold
GEMVGQARILAQATSDLVNAIKDA | vinculin head domain Vd1 | complex rupture, AFM single-molecule force spectroscopy | peptide | traces traces, C-terminal pulling, 800 nm/s | – | rupture force FWHM lower side | 38.6 pN
ALMQWVTQV | Jurkat T cells expressing 1G4 TCR | NFAT-eGFP reporter, flow cytometry | peptide | concentration not given, HLA-A*02:01 NY-ESO system | – | reporter activation | 74.2%
GSGAGKETYY | human MAGI1-2/6 PDZ construct (MBP fusion) | automated holdup | peptide, purified PDZ protein | concentration not given, unit not given | relative to: biotin control resin, higher = stronger binding | binding intensity | 0.00264
GLMQWNYRA | Jurkat T cells expressing 1G4 TCR | NFAT-eGFP reporter, flow cytometry | peptide | concentration not given, HLA-A*02:01 NY-ESO system | – | reporter activation | 0.24%
AAAEGEMK | MsrA and MsrB | LC-MS/MS | peptide, acetylated Escherichia coli proteome | 20 min, pH 7.5, 37 °C, together with: MsrA 0.54 µM, MsrB 2.02 µM | – | fractional oxidation | 0.0675
ACDDQNPWRAYLDLLFPTDTLLLDLLW | – | ex vivo fluorescence imaging | peptide, BALB/c mice, 4T1 tumour-bearing, muscle | intravenous, 5 nmol, 4 h post-injection | higher = more uptake | mean fluorescence intensity | 1120 ± 167 a.u.
GLAQWISGV | Jurkat T cells expressing 1G4 TCR | NFAT-eGFP reporter, fluorescence microscopy | peptide | concentration not given, HLA-A*02:01 NY-ESO system | – | reporter activation | 0.0181%
Ac-LRKLRKRLLRDWLKAFYDKVAEKLKEAF-NH2 (N-acetyl, C-amide) | THP-1-derived macrophages | real-time PCR | peptide | concentration not given | relative to: control | apoE mRNA level | no effect
ACEEQNPWARYLEWLFPTETLLLEL | – | ex vivo fluorescence imaging | peptide, BALB/c mice, 4T1 tumour-bearing, 4T1 tumour | intravenous, 5 nmol, 24 h post-injection | higher = more uptake | mean fluorescence intensity | 810 ± 196 a.u.
human HSC70 | – | co-immunoprecipitation | human RBC membrane | DSSO crosslinker, unit not given, together with: Band 3 peptide 1-56 bait | relative to: negative control | co-IP enrichment | 12.5
GLGQWIPQA | Jurkat T cells expressing 1G4 TCR | NFAT-eGFP reporter, flow cytometry | peptide | concentration not given, HLA-A*02:01 NY-ESO system | – | reporter activation | 0.076%
QGRWDHETIV | human SCRIB PDZ3-4 tandem (MBP fusion) | automated holdup | peptide, purified PDZ protein | concentration not given, unit not given | relative to: biotin control resin, higher = stronger binding | binding intensity | 0.409
human clusterin | – | co-immunoprecipitation | human plasma | no crosslinker, unit not given, together with: Band 3 peptide 1-56 bait | relative to: negative control | co-IP enrichment | 432000
CTGTTACTCT | Salmonella enterica Typhimurium | RNA-seq, measured: SL1344_3728 transcript | peptide, SL1344 | 5 µM, 15 min | relative to: untreated control | log2 fold change | 1.64
CCT4 | – | co-immunoprecipitation | human RBC membrane | unit not given, together with: Band 3 peptide 1-56 bait | relative to: negative control | co-IP enrichment | 0
caspofungin | – | – | adult ICU patients, mITT, serum | dose not given, day 4 | – | potassium | 4 mmol/L
CCT6A | – | co-immunoprecipitation | human RBC cytosol | DSSO crosslinker, unit not given, together with: Band 3 peptide 1-56 bait | relative to: negative control | co-IP enrichment | 3670
FNA / CGLSGLGVA-NH2 ([18F]FNA-labelled, C-amide) | – | ex vivo gamma counting | peptide, healthy mice, small intestine | dose not given, 60 min | – | tissue uptake | 1.3 %ID/g
TCP-1 alpha | – | co-immunoprecipitation | human RBC cytosol | unit not given, together with: Band 3 peptide 1-56 bait | relative to: negative control | co-IP enrichment | 0
GSGAGKETRV | human MAGI1-3/6 PDZ construct (MBP fusion) | automated holdup | peptide, crude extract | concentration not given, uncorrected, unit not given | relative to: biotin control resin, higher = stronger binding | binding intensity | 0.487
Polymyxin B | Staphylococcus aureus | – | CMCC 26003 | concentration not given | – | catalase activity | 0.226 U/mol and 0.21 U/mol and 0.245 U/mol
thimet oligopeptidase | – | co-immunoprecipitation | human RBC cytosol | unit not given, together with: Band 3 peptide 1-56 bait | relative to: negative control | co-IP enrichment | 0

Substance | tested on | test | system | conditions | how to read | endpoint | result
Peginesatide | UT7/EPO | tyrosine phosphorylation, LC-MS/MS phosphoproteomics, trypsin, measured: GAB1 tyrosine 627 | – | 10 nM, 15 min, together with: 10 U/mL EPO | relative to: vehicle | phosphorylation level | 10.6 fold
MTVCNASQRQAHAQATAVSL | PC-3 prostate cancer | phage binding output/input | peptide | – | relative to: control phage | selectivity ratio | 0.51 ± 0.13
ALLEWVNQC | Jurkat T cells expressing 1G4 TCR | NFAT-eGFP reporter, fluorescence microscopy | peptide | concentration not given, HLA-A*02:01 NY-ESO system | – | reporter activation | 0.15%
ILEAAKSIAAATSALVKAASAAQRE | vinculin head domain Vd1 | complex rupture, AFM single-molecule force spectroscopy | peptide | single traces, N-terminal pulling, 800 nm/s | – | mean rupture force | 60.4 pN
insulin degludec | – | – | human | subcutaneous, 0.4 IU/kg, 2 FC level, single dose, reference formulation | – | apparent clearance CL/F | 1.51 ± 0.2 L/h
NPDALPETLV | human SCRIB PDZ3-4 tandem (MBP fusion) | automated holdup | peptide, purified PDZ protein | concentration not given, unit not given | relative to: biotin control resin, higher = stronger binding | binding intensity | 0.339
GLFQWVAQA | Jurkat T cells expressing 1G4 TCR | NFAT-eGFP reporter, flow cytometry | peptide | concentration not given, HLA-A*02:01 NY-ESO system | – | reporter activation | 0.25%
methyl-β-cyclodextrin | Sodium- and chloride-dependent glycine transporter 1 (SLC6A9, Homo sapiens, UniProt P48067) | transport activity, [3H]glycine uptake | – | 3.5 mg/mL, 1 min, together with: glycine 75 µM | higher = more transport | glycine uptake rate | 21.6 a.u. and 21.9 a.u. and 27.5 a.u. and 29 a.u. and 28.8 a.u.
colistin | Pseudomonas aeruginosa | – | clinical isolate RKI 46/14 | – | – | MIC | ≤ 1 µg/mL
GLFQWISQA | Jurkat T cells expressing 1G4 TCR | NFAT-eGFP reporter, flow cytometry | peptide | concentration not given, HLA-A*02:01 NY-ESO system | – | reporter activation | 2.82%
human alpha-enolase | – | co-immunoprecipitation | human RBC membrane | DSSO crosslinker, unit not given, together with: Band 3 peptide 1-56 bait | relative to: negative control | co-IP enrichment | 0.207
DNA 1 CACTGGCCGTCTTACGGTCGCTCTGCTCGACG / DNA 2 CGACCGTAAGACGGCCAGTG (dsDNA; 20 bp, 3' 12 nt overhang) | RECQL 63-592 T371A (Bos taurus, UniProt A0JN36) | fluorescence anisotropy | double-stranded DNA | together with: Mg2+ 3 mM | – | Kd | 113 ± 9 nM
milbemycin oxime | Saccharomyces cerevisiae | cell growth | Pdr5 deleted, Cdr1 overexpressed | 2^-4.381 µg/mL, together with: fluconazole 10 µg/mL | – | OD600 | 0.039 and 0.041
PKRSFIESNV | human MAGI1-2/6 PDZ construct (MBP fusion) | automated holdup | peptide, crude extract | concentration not given, corrected by standard peak, unit not given | relative to: biotin control resin, higher = stronger binding | binding intensity | 0.41
cotadutide | – | metabolomics, measured: hepatic valine | ob/ob mice on AMLN diet, NASH model, liver | dose not given | – | metabolite level | 1.05 ± 0.04 scaled intensity
KPGKGSETVV | human SCRIB PDZ3-4 tandem (MBP fusion) | automated holdup | peptide, purified PDZ protein | concentration not given, unit not given | relative to: biotin control resin, higher = stronger binding | binding intensity | 0.13
ALFQWVSQA | Jurkat T cells expressing 1G4 TCR | NFAT-eGFP reporter, fluorescence microscopy | peptide | concentration not given, HLA-A*02:01 NY-ESO system | – | reporter activation | 2.74%
human delta-aminolevulinic acid dehydratase | – | co-immunoprecipitation | human RBC membrane | unit not given, together with: Band 3 peptide 1-56 bait | relative to: negative control | co-IP enrichment | 0
11-deoxycorticosterone | – | stopped-flow global kinetic fitting | – | 4-state closed model (best), 10-fold adrenodoxin excess, together with: substrate binding k-2 | – | rate constant | 45.8 ± 1.6 min⁻¹
LVHYTHCGSLGV | Epstein-Barr virus | – | peptide, EBV-infected humanized B-NDG mice | 20 mg/kg, day 28 | – | body weight | 22.1 g and 22.9 g
BzATP | P2X purinoceptor 7 (P2rx7, Rattus norvegicus, UniProt Q64663, R125A) | ion current, agonist, two-electrode voltage clamp | Xenopus oocytes | 0.1372 µM | – | normalized current | 0.0093 and 0.105 and 0.0793
GSGAGKETEC | human MAGI1-3/6 PDZ construct (MBP fusion) | automated holdup | peptide, crude extract | concentration not given, corrected by standard peak, unit not given | relative to: biotin control resin, higher = stronger binding | binding intensity | 0.0432
Teicoplanin | – | – | QC solution | 13 months, -40 °C, low QC level | – | recovery | 93%

A few entries again:
Substance | tested on | test | system | conditions | how to read | endpoint | result
human delta-aminolevulinic acid dehydratase | – | co-immunoprecipitation | human RBC membrane | unit not given, together with: Band 3 peptide 1-56 bait | relative to: negative control | co-IP enrichment | 0
ACDDQNPWRAYLDLLFPTDTLLLDLLW | – | ex vivo fluorescence imaging | peptide, BALB/c mice, 4T1 tumour-bearing, muscle | intravenous, 5 nmol, 4 h post-injection | higher = more uptake | mean fluorescence intensity | 1120 ± 167 a.u.
GLFQWISQA | Jurkat T cells expressing 1G4 TCR | NFAT-eGFP reporter, flow cytometry | peptide | concentration not given, HLA-A*02:01 NY-ESO system | – | reporter activation | 2.82%
Ac-LRKLRKRLLRDWLKAFYDKVAEKLKEAF-NH2 (N-acetyl, C-amide) | THP-1-derived macrophages | real-time PCR | peptide | concentration not given | relative to: control | apoE mRNA level | no effect
NPDALPETLV | human SCRIB PDZ3-4 tandem (MBP fusion) | automated holdup | peptide, purified PDZ protein | concentration not given, unit not given | relative to: biotin control resin, higher = stronger binding | binding intensity | 0.339
CCT6A | – | co-immunoprecipitation | human RBC cytosol | DSSO crosslinker, unit not given, together with: Band 3 peptide 1-56 bait | relative to: negative control | co-IP enrichment | 3670
ALLEWVNQC | Jurkat T cells expressing 1G4 TCR | NFAT-eGFP reporter, fluorescence microscopy | peptide | concentration not given, HLA-A*02:01 NY-ESO system | – | reporter activation | 0.15%
GSGAGKETYY | human MAGI1-2/6 PDZ construct (MBP fusion) | automated holdup | peptide, purified PDZ protein | concentration not given, unit not given | relative to: biotin control resin, higher = stronger binding | binding intensity | 0.00264
